Published values gathered from unrelated publications.
A part holds a random share of what one study measured.

Block 1 — method: RNA Bind-n-Seq; form: RNA; sample: in vitro; tested at: not given; relative to: input RNA pool; direction: higher = stronger binding
Target: RING finger protein unkempt homolog, zinc fingers 1-6, GST-SBP tag (UNK, Homo sapiens, UniProt Q9C0B0, residues 30-357)
UniProt Q9C0B0, sequence (30-357, looked up): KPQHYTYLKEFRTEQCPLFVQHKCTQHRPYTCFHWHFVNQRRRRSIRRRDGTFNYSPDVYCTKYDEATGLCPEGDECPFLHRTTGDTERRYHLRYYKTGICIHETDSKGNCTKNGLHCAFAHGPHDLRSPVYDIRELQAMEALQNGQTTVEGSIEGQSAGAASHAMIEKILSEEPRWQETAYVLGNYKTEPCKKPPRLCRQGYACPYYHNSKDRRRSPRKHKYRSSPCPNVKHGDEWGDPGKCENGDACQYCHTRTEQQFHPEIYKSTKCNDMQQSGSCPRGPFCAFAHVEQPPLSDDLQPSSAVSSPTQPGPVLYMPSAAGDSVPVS
Setting: RNA with constant flanks, human and mouse sites, ends assumed
Constant ends, left off below: GGGAGUUCUACAGUCCGACGAUC … CAACAGAGGAUUGAGCAUCA
Sequence	bound/input enrichment [ratio]
AUAAUAAAUUAAAUAAUUGGAUCCUAGGCAUACCAAUAAAUGUUAUUUGGGGAAAGAAGCUAGCACUAUCUCAUGCAGUGAGAAUAACGGGUUCUAGUGAAUUAUCCUAUCUACACUACC	0.447
UUGACUUCUUUCCAGUCCACGUGUGUAUAUAAUGAUAUCUAUAUUUUUGCCCAGGUCUGGGUAUUGCUCCUGCCCAGACCCUGACAUCCCUUUCCACUGUGUGUGUGACCAUGCUGGGGG	0.645
GUUCCCCUGUUGCUAAAUAAUGUGAAAGGGGAGCCCCCGGAGGACUCGUUAUCUGUAGAUCACUUCCAAACACAAACUGAGCCAGUGGACUUGUCAAUAAACAAAGCCAGGACGUCCCCU	0.122
UUUUUUCCUGAUUUAGCAGGAGCCCCUUUCUAUUUCAGUUUCAUUUUCAGCAUAGUAGCCUUUCUAUACUUUUUCUAUAAGACUUGGGCAACUGAUCCAGGCUUCACUAAGGCUUCUGAA	6.34
AUGCAAAAUUUUGGGUUGAUGAUAGCAGAUCCUAUCUGUUCGAUUCUUAUAGCCAUUCUUAUAGUUGUAAGUGUUAUUCCACUUUUAAGAGAGUCUGUUGGAAUAUUAAUGCAAAGAACU	0.647

Block 2 — method: protein-binding microarray; form: double-stranded DNA, one strand shown; sample: in vitro; tested at: 250 nM; setting: 60-bp whole probe; with: salmon DNA 0.4 mg/ml; relative to: random background probes; direction: higher = stronger binding; constant ends, left off below: GCCTAGCAC … GTCTTGATTCGCTTGACGCTGCTG
Target: Interferon regulatory factor 5, full length, phosphomimetic (IRF5, Homo sapiens, UniProt Q13568-2, residues 1-514, K96S/S451D/S453D/S456D/S462D)
Sequence	log fluorescence [z-score]
TTAGGATTCGGTATCGGTTAGTGCTAG	5.98
GACGATATCAGTTTCGAAACGTGCTAG	7.6
TTAGATTTCAGTCTCGATGAGTGCTAG	2.36
TAAGGTTTCCTTTCCCTTTAGTGCTAG	1.88
GACGGTCTCGGACTGGGGACGTGCTAG	-0.355
GACGTTATCGACTTTCGGGACGTGCTA	6.44
GTAGGTTTCGGGACTGGGTTAGTGCTA	5.83
GACGATATCGGGTTTCGAGGCGTGCTA	3.04

Block 3 — method: RNA Bind-n-Seq; form: RNA; sample: in vitro; tested at: 365 nM; relative to: no-protein control; direction: higher = stronger binding
Target: RNA binding protein fox-1 homolog 2, RRM domain, GST-SBP tag (RBFOX2, Homo sapiens, UniProt O43251-10, residues 100-194)
Setting: natural RNA segment, single round, ends assumed
Constant ends, left off below: GGGAGUUCUACAGUCCGACGAUC … UGGAAUUCUCGGGUGCCAA
Residues (chain): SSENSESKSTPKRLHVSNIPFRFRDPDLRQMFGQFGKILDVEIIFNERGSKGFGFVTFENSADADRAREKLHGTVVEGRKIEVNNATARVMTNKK
Sequence	RBNS enrichment (R)
GAAUGGAAAGCAUUCCCUGGUAGCUACUUUAAAUACAGGAGCCCUGUAACUUAAUACCAGUAGUCAACCACUGGAUCUCAGUUUUCAUCAAGUAUUUUAAAUAAAUAAUC	0.24
CAGUCCACCCCUGCCUAAGGCUCAGGCUACCUGCUUUGGGGCACAGCUUCCUGGUACUCACAGCAUCUCAGAACAGGGUGCUUCCCUCUGCCUCCAGCUCCAAGGACUCU	0.654
GCUGGAGUGCACUAGUCUUUUUGCUUAUUCAUUUUGCAUGGUUUUAAAAUUAAAAAUAAUUCCGAAGAUACACCAGCUCACAAAUGAAAACGUCAGCCUCUGCCCCACCC	3.41
CUCCAAGAGAUGAGGCCUCAGUCCAGAACCCAUCUUCAUACAAAAGCUUCAGUAGCCUGUAGGCGGCUGUACUUGGAACAGACAUUUGGCUGCCAGUAGCAGGCCUGGCA	0.489
UUCUCCUCAGCGCCACACUCACAUAUUUCUCUGCUUUGGUUCUACAAUCUGUUGUUGAGUUCCCCCUCUCUGCAUCAGUCUUCCCUGGAAAUGGAGGACCUGGUGCAGUA	0.435
UGAGGUCGGCGUUAUUUCCUCUCUCCCCCCACGUCAUCCUCCUCCGACACUGACGUCCACCGUGCAUGUGGCUGAGGGAGAGAGCCAGCUGGUUGUUUCUGGUAUAGCUG	3.09
CAAGGGACAGAAGCAAGACAAAAUGCAUGGGCCCUUGUGUUCCUAAUGGUCUUAACUGAAGUCCAACUUCAGUUACAAUUUUCAGAGGCUCGUUGUUUUCCCAAAGCUAA	2.07
CAGUUUUCCGCUAGUAUCCGGCAAGGUUUCUUGCAACAAAUGAUUAGUUCUUUUCUUCUGACUCGUGGGGCUCCCUGCUGCAGAGAGCACAGCCCUUGCCUGGAGCCCAG	0.398

Block 4 — cell line: HEK-293T/ACE2; tested at: concentration not given; time: 16 (unit not given); relative to: vehicle
SMILES	viability
CC(O)(CS(=O)(=O)c1ccc(F)cc1)C(=O)Nc1ccc(C#N)c(C(F)(F)F)c1 (stereo not shown)	97.2%
O=C(Nc1c(Cl)cncc1Cl)c1ccc(OC(F)F)c(OCC2CC2)c1	101%
COc1cc2nc(N(C)CCCNC(=O)C3CCCO3)nc(N)c2cc1OC (stereo not shown)	99.5%
NC(=O)N1c2ccccc2CC(=O)c2ccccc21	98.1%
CC(C)NCC(O)c1ccc(NS(C)(=O)=O)cc1 (stereo not shown)	102%

Block 5 — read-out: enzyme activity; action: inhibitor; tested at: 20 µM
Target: Replicase polyprotein 1ab, polymerase (rep, Severe acute respiratory syndrome coronavirus 2, UniProt P0DTD1)
SMILES	inhibition [%]
NC(=O)C[S@@+]([O-])C(c1ccccc1)c1ccccc1	-11.3
O=Cc1ccc(CO)o1	-6.21
CCCCCCCCCCCCCCCC(=O)OC(C)C	0.23
COc1cc2c(cc1OC)CN(CCc1ccc(NC(=O)c3cc(OC)c(OC)cc3NC(=O)c3cnc4ccccc4c3)cc1)CC2	-1.67
C=CC[N@@+]12CC[C@@]34c5ccccc5N5/C=C6/[C@H]7C[C@H]8[C@@]9(CC[N@@+]8(CC=C)C/C7=C/CO)c7ccccc7N(/C=C(/[C@@H](C[C@@H]31)/C(=C\CO)C2)[C@H]54)[C@@H]69	0.85
CCCC[P+](CCCC)(CCCC)Cc1ccc(NC(=O)[C@H](Cc2ccc3ccccc3c2)NC(=NC2CCCCC2)NC2CCCCC2)cc1	40
N#Cc1ccccc1OCC(O)CNCCNC(=O)Nc1ccccc1 (stereo not shown)	2.13
COc1cccc(CCc2ccccc2OCC[C@@H]2C[C@@H](O)CN2C)c1	2.39
CN(C(=O)/C=C/c1ccoc1)[C@@H]1CC[C@@]2(O)[C@H]3Cc4ccc(O)c5c4[C@@]2(CCN3CC2CC2)[C@H]1O5	-5.29
CCN(CCCCOC(=O)c1ccc(OC)c(OC)c1)C(C)Cc1ccc(OC)cc1 (stereo not shown)	12.6
Oc1ccc2ccccc2c1	0.23
CC(C)=CCC[C@](C)(O)[C@H]1CC[C@]2(C)[C@@H]1[C@H](O)C[C@@H]1[C@@]3(C)CC[C@H](O[C@@H]4O[C@H](CO)[C@@H](O)[C@H](O)[C@H]4O[C@@H]4O[C@H](CO)[C@@H](O)[C@H](O)[C@H]4O)C(C)(C)[C@@H]3CC[C@]12C	5.37
O=c1[nH]cnc2nc[nH]c12	-6.03
Oc1ccc(OCc2ccccc2)cc1	-3.93
CCn1cc(C(=O)O)c(=O)c2cnc(N3CCNCC3)nc21	22.6
C[C@]12COC(=O)C[C@@H]1CC[C@@H]1[C@@H]2CC[C@@]2(C)[C@H]1CC[C@]2(C)O	-0.25
COc1cc(Nc2ncc3c(n2)-c2ccc(Cl)cc2C(c2c(F)cccc2OC)=NC3)ccc1C(=O)O	3.84
CC[C@@H]1C(=O)OC[C@@H]1Cc1cncn1C	17.6
CCCC(=O)Nc1ncnc2c1ncn2[C@@H]1O[C@@H]2COP(=O)(O)O[C@H]2[C@H]1OC(=O)CCC	-0.96
CC(C)c1ccccc1Cc1cc(C(=O)Nc2ccc(S(=O)(=O)c3ccccc3C(C)(C)C)cc2)c(O)c(O)c1O	89.4
COCc1c[n+]([O-])c(C)cn1	0.76
CSc1ccccc1Nc1nc(N2CCNCC2)nc2c(NCC3CC3)ncnc12	20.7
O=c1oc2cc(O)ccc2s1	5.12
O=C1C=Cc2cc(Br)ccc2C1=O	4.46
c1ccc(C2CN3CCSC3=N2)cc1 (stereo not shown)	-2.84

Further values, each from its own experiment
SMILES	target	read-out	action	tested at	setting	endpoint	result
COc1cc(C[C@@H]2NCCc3cc(O)c(O)cc32)cc(OC)c1OC	Replicase polyprotein 1ab, main protease (rep, Severe acute respiratory syndrome coronavirus 2, UniProt P0DTD1)	enzyme activity	inhibitor	20 µM	hit confirmation, no DTT	inhibition	55.4%

For quick reference, copied from above (block 3):
Sequence	RBNS enrichment (R)
GAAUGGAAAGCAUUCCCUGGUAGCUACUUUAAAUACAGGAGCCCUGUAACUUAAUACCAGUAGUCAACCACUGGAUCUCAGUUUUCAUCAAGUAUUUUAAAUAAAUAAUC	0.24
CAAGGGACAGAAGCAAGACAAAAUGCAUGGGCCCUUGUGUUCCUAAUGGUCUUAACUGAAGUCCAACUUCAGUUACAAUUUUCAGAGGCUCGUUGUUUUCCCAAAGCUAA	2.07
CUCCAAGAGAUGAGGCCUCAGUCCAGAACCCAUCUUCAUACAAAAGCUUCAGUAGCCUGUAGGCGGCUGUACUUGGAACAGACAUUUGGCUGCCAGUAGCAGGCCUGGCA	0.489
CAGUUUUCCGCUAGUAUCCGGCAAGGUUUCUUGCAACAAAUGAUUAGUUCUUUUCUUCUGACUCGUGGGGCUCCCUGCUGCAGAGAGCACAGCCCUUGCCUGGAGCCCAG	0.398
CAGUCCACCCCUGCCUAAGGCUCAGGCUACCUGCUUUGGGGCACAGCUUCCUGGUACUCACAGCAUCUCAGAACAGGGUGCUUCCCUCUGCCUCCAGCUCCAAGGACUCU	0.654
GCUGGAGUGCACUAGUCUUUUUGCUUAUUCAUUUUGCAUGGUUUUAAAAUUAAAAAUAAUUCCGAAGAUACACCAGCUCACAAAUGAAAACGUCAGCCUCUGCCCCACCC	3.41
UUCUCCUCAGCGCCACACUCACAUAUUUCUCUGCUUUGGUUCUACAAUCUGUUGUUGAGUUCCCCCUCUCUGCAUCAGUCUUCCCUGGAAAUGGAGGACCUGGUGCAGUA	0.435
